{"sequences": {"note": "By UniProt entry, the sequences of proteins in these tests, tags left out.", "UniProt P08684, whole entry": "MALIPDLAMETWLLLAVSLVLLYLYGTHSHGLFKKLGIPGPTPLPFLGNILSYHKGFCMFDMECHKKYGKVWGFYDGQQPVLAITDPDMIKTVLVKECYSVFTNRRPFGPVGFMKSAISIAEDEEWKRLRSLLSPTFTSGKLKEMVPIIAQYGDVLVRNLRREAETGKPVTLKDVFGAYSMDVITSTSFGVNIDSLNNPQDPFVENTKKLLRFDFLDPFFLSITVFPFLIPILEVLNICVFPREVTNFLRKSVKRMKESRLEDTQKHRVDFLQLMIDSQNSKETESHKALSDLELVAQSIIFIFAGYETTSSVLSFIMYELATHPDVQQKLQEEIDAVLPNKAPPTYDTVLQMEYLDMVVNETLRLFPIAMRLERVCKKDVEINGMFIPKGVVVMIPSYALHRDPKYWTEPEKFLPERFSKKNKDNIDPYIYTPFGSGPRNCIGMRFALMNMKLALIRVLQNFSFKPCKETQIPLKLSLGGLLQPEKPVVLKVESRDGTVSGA"}, "data": "Measured values from different studies", "target": "Cytochrome P450 3A4 (CYP3A4, Homo sapiens, UniProt P08684)", "note": "Protocols differ between the studies behind these lines."}
{"SMILES": "Cc1cccc(NC(=O)C2CC3CCC2C3)c1C (centres unmarked)", "read-out": "enzyme activity", "mode": "inhibitor", "measurement": "IC50", "result": "> 30000 nM"}
{"SMILES": "COc1ccc(NC(=O)CN2CCCN(S(=O)(=O)c3ccc(C)cc3)CC2)c(OC)c1", "read-out": "enzyme activity", "mode": "inhibitor", "measurement": "IC50", "result": "3000 nM"}
{"SMILES": "Cc1n[nH]c(C)c1CCOC(=O)c1cccc2c1oc(=O)n2C", "mode": "inhibitor", "concentration": "10 µM", "measurement": "inhibition", "result": "14.1%"}
{"SMILES": "O=C(N[C@H](Cc1ccccc1)C(=O)O)c1sc2cc(F)ccc2c1Cl", "read-out": "enzyme activity", "concentration": "concentration not given", "measurement": "inhibition", "result": "no effect"}
{"SMILES": "COc1cc2c(cc1CCCOC(=O)c1ccccc1)OCO2", "read-out": "enzyme activity", "mode": "inhibitor", "technique": "fluorescence", "with": "dibenzyl fluorescein substrate", "measurement": "IC50", "result": "2100 nM"}
{"SMILES": "COc1ccc(NC(=O)CN2CCCN(S(=O)(=O)c3ccccc3)CC2)c(OC)c1", "read-out": "enzyme activity", "mode": "inhibitor", "measurement": "IC50", "result": "7000 nM"}
{"SMILES": "CC(Cc1cc2c(cc1OCc1ccccc1)OCO2)OC(=O)C(c1ccccc1)c1ccccc1 (centres unmarked)", "read-out": "enzyme activity", "mode": "inhibitor", "technique": "fluorescence", "with": "dibenzyl fluorescein substrate", "measurement": "IC50", "result": "160 nM"}
{"SMILES": "Cc1ccc(NC(=O)C2CC3CCC2C3)cc1 (centres unmarked)", "read-out": "enzyme activity", "mode": "inhibitor", "measurement": "IC50", "result": "> 30000 nM"}
{"note": "Some of these lines once more:"}
{"SMILES": "COc1cc2c(cc1CCCOC(=O)c1ccccc1)OCO2", "read-out": "enzyme activity", "mode": "inhibitor", "technique": "fluorescence", "with": "dibenzyl fluorescein substrate", "measurement": "IC50", "result": "2100 nM"}
